Measurements collected from several papers.
Protocols differ between the studies behind these lines. Several values in a cell are separate wells, animals, samples, runs or records. ± marks the error that the study gave.
rep main protease: Replicase polyprotein 1ab, main protease (rep, Severe acute respiratory syndrome coronavirus 2, UniProt P0DTD1)
rep papain-like protease: Replicase polyprotein 1ab, papain-like protease (rep, Severe acute respiratory syndrome coronavirus 2, UniProt P0DTD1)

Compound | target or system | test | test system | setting | quantity | value
CNC(=O)CC[C@H](Cc1ccccc1)NC(=O)[C@@H](Cc1ccc(Cl)cc1Cl)NC(=O)[C@H](N)Cc1ccccc1[N+](=O)[O-] | rep main protease | 3CL protease activity | – | 0.04576 µM | remaining activity | 93.9%
COc1cc(OC)cc(C(=O)N(CCC(=O)N2CCNCC2)Cc2cccc(Cl)c2)c1 | Replicase polyprotein 1ab, nsp3 macrodomain (rep, Severe acute respiratory syndrome coronavirus 2, UniProt P0DTD1) | ADP-ribosylhydrolase activity, ADPr-Glo | SARS-CoV-2 | – | maximum inhibition | ~60%
CCOc1ccc(CN2CC[C@H]2C(=O)NC)cc1-c1cccc(C(=O)NC[C@@H]2COC(C)(C)O2)c1 | rep main protease | – | – | 0.0001693 µM | remaining activity | 89.6%
C=CC(=O)N(c1ccc(C(C)(C)C)cc1)C(C(=O)NCCc1cccc(F)c1)c1cccnc1 (stereo not drawn) | rep main protease | enzyme activity, inhibitor | – | – | kinact/KI | 81.2 M⁻¹ s⁻¹
Cc1cc(C)nc(Sc2nc3sccn3c2[N+](=O)[O-])n1 | rep main protease | protease activity, SAMDI-MS | – | – | Hill slope | 1.4 and 1.41
CC(C)[C@H](NC(=O)c1ccccc1[Se][Se]c1ccccc1C(=O)N[C@H](C(=O)O)C(C)C)C(=O)O | rep main protease | enzyme activity, inhibitor | – | 40 µM, mean of repeats | inhibition | 104%
C[C@](C(=O)NC1CCOCC1)(c1cncnc1)N(C(=O)[C@H](F)Cl)c1ccc(OC(F)(F)Cl)cc1 | rep main protease | enzyme activity | – | 10 µM | inhibition | 102% and 100%
CCCCCCCCCCCCCCCC(=O)N[C@@H](CCC(=O)NCCOCCOCCC(=O)NCCOCCOCCC(=O)NCCCC[C@H](NC(=O)[C@H](CC(=O)O)NC(=O)[C@H](CC(C)C)NC(=O)[C@H](Cc1ccc(O)cc1)NC(=O)[C@H](CCCCN)NC(=O)[C@H](CO)NC(=O)[C@H](Cc1ccc(O)cc1)NC(=O)[C@H](CC(=O)O)NC(=O)[C@H](CO)NC(=O)[C@@H](NC(=O)[C@H](Cc1ccccc1)NC(=O)[C@@H](NC(=O)CNC(=O)[C@H](CCC(N)=O)NC(=O)[C@@H](CO)NC(=O)[C@@H](N)Cc1c[nH]cn1)[C@@H](C)O)[C@@H](C)O)C(=O)N[C@@H](CCCNC(=N)N)C(=O)N[C@@H](CCCNC(=N)N)C(=O)N[C@@H](C)C(=O)N[C@@H](CCC(N)=O)C(=O)N[C@@H](CC(=O)O)C(=O)N[C@@H](Cc1ccccc1)C(=O)N[C@H](C(=O)N[C@@H](CCC(N)=O)C(=O)N[C@@H](Cc1c[nH]c2ccccc12)C(=O)N[C@@H](CC(C)C)C(=O)N[C@@H](CC(C)C)C(=O)N[C@@H](CC(N)=O)C(=O)N[C@H](C(=O)NCC(=O)NCC(=O)N1CCC[C@H]1C(=O)N[C@@H](CO)C(=O)N[C@@H](CO)C(=O)NCC(=O)N[C@@H](C)C(=O)N1CCC[C@H]1C(=O)N1CCC[C@H]1C(=O)N1CCC[C@H]1C(=O)N[C@@H](CO)C(N)=O)[C@@H](C)O)C(C)C)C(=O)O | – | – | Sprague-Dawley rat, male | subcutaneous, 20 µg/kg once daily, 14 days | creatinine | 22.8 ± 1.8 µmol/L
CC1CC(c2ccc(C(=O)O)s2)=NN1c1ccc(C#N)c(Cl)c1 (stereo not drawn) | Replicase polyprotein 1ab, nsp14 methyltransferase (rep, Severe acute respiratory syndrome coronavirus 2, UniProt P0DTD1) | – | – | – | lipophilic ligand efficiency | 2.9
CC(c1ccccc1Cl)N(C)Cc1cc(O)ccc1Cl (stereo not drawn) | rep papain-like protease | thermal stability, DSF | – | – | ΔTm | 2.98 °C
COC(=O)Cn1[se]c2ccccc2c1=O | rep main protease | enzyme activity, inhibitor | – | 40 µM | inhibition | 103%
Cc1ccc(OCCN(C)C)cc1C(=O)N[C@H](C)c1cc(-c2cncs2)nc2ccccc12 | rep papain-like protease | reporter gene, cell-based | – | – | GFP/mCherry signal ratio | 30.8 and 29.6 and 81 and 69.2 and 71.2 and 54.3
N#Cc1cn([C@@H]2O[C@H](CSCC[C@H](N)C(=O)O)[C@@H](O)[C@H]2O)c2ncnc(N)c12 | Replicase polyprotein 1ab, nsp16 with nsp10 (rep, Severe acute respiratory syndrome coronavirus 2, UniProt P0DTD1) | nsp10-nsp16 methyltransferase activity, radiometric | – | – | Hill slope | 0.9 ± 0.4
CC(C)C[C@@H]1NC(=O)[C@H](C(C)C)NC(=O)[C@H](C)NC(=O)[C@H](Cc2ccc(O)cc2)NC(=O)[C@H](CCC(N)=O)NC(=O)[C@H](CC(C)C)NC(=O)[C@@H](Cc2ccc(O)cc2)NC(=O)CSC[C@@H](C(N)=O)NC(=O)[C@H](CCC(=O)O)NC(=O)[C@H](CCCNC(=N)N)NC(=O)[C@H](CCCNC(=N)N)NC(=O)[C@H](CCCCN)NC(=O)[C@H](Cc2c[nH]cn2)NC(=O)[C@H](CCCNC(=N)N)NC1=O | rep papain-like protease | – | SARS-CoV-2 | 10 µM | activity | inactive
CC[C@H](NC(=O)OCc1ccccc1)C(=O)N[C@H](C(=O)N[C@@H](Cc1ccccc1)C(=O)N(C)N(C#N)Cc1ccccc1)C(C)(C)C | rep main protease | enzyme activity, irreversible inhibitor | SARS-CoV-2 | 37 °C, main protease | kinact/KI | 128000 M⁻¹ s⁻¹

For quick reference, copied from above:
Compound | target or system | test | test system | setting | quantity | value
N#Cc1cn([C@@H]2O[C@H](CSCC[C@H](N)C(=O)O)[C@@H](O)[C@H]2O)c2ncnc(N)c12 | Replicase polyprotein 1ab, nsp16 with nsp10 (rep, Severe acute respiratory syndrome coronavirus 2, UniProt P0DTD1) | nsp10-nsp16 methyltransferase activity, radiometric | – | – | Hill slope | 0.9 ± 0.4
